Results of several laboratories.
Values joined by “and” are separate records of one study, mostly repeats; a detail may differ. ± gives the spread as reported.
UniProt P45880, sequence (whole entry, looked up): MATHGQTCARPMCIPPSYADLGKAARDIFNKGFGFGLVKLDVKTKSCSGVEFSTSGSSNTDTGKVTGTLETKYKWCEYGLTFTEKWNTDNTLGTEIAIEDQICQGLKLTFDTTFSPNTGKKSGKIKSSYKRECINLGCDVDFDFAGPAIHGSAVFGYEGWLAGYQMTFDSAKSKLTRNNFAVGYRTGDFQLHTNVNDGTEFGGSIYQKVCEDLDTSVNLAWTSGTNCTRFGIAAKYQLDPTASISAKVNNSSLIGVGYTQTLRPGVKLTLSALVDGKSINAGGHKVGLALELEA

Oc1cc(Cl)ccc1Oc1ccc(Cl)cc1Cl: “point of departure” 1.29 µM (HepG2; extracellular flux, refers to: oxygen consumption rate; 6 h, distribution mode 1).
For Cn1cncc1C1=CN(c2ncnc3[nH]cnc23)CCS1, the CC50 was > 200 µM (NCI-H226; lung cancer).
With COc1ccc([C@H]2c3[nH]c4ccc(Cl)cc4c3CCN2C(=O)Oc2ccc(Cl)cc2)cc1 the inhibition was 25% (human dermal fibroblasts with PBMC; cytokine secretion, refers to: IL-8; 0.01 µM, 48 h).
COc1c(C)c2c(c(O)c1C/C=C(\C)CCC(=O)O)C(=O)OC2 gave an IC50 of 0.759 µM (NCI-H82; cell proliferation; lung cancer).
CC[C@@]1(O)C(=O)OCc2c1cc1n(c2=O)Cc2cc3ccccc3nc2-1 gave an inhibition of 96.2% (BT-12; cell viability, MTT; 10 µM, 72 h).
Under “log2 fold change”, CC[C@H](C)[C@@H]1NC(=O)[C@@H]2CCCN2C(=O)[C@H](CC(C)C)NC(=O)[C@H](CC(C)C)NC(=O)CNC(=O)[C@@H](NC(=O)[C@@H](NC(=O)[C@H](CC(=O)O)NC(=O)CNC(=O)[C@@H](NC(=O)[C@H](C)NC(=O)CNC(=O)[C@H](CCCCN)NC(=O)[C@H](CC(C)C)NC(=O)[C@H](CC(C)C)NC(=O)[C@H](CCCCN)NC(=O)CNC(=O)[C@@H](NC(=O)[C@@H](N)CC(C)C)C(C)C)C(C)C)C(C)C)CSSC[C@@H](C(=O)O)NC1=O is recorded as -2.03 (RNA-seq, refers to: Nfkb2; mouse, traumatic brain injury model, frontal cortex and hippocampus; dose not given; reference: TBI alone).
With CC(C)N1CCC(NC2CCN(c3cccc(-c4cc5cc(F)ccc5[nH]4)c3)CC2)CC1 the CC50 was 5.78 µM (A498).
The mean Log10TGI of COc1cc(CCC[P+](c2ccccc2)(c2ccccc2)c2ccccc2)c(OC)c2c1OCO2.[I-] is reported as -4.88 log M (NCI60 panel; SRB).
The DNA methylation of COc1ccc2c(c1)[nH]c1c(C)nccc12 is reported as 92.4% (DU-145; bisulfite pyrosequencing, refers to: RASSF1A promoter CpG site 22; 10 µM, 16 h).
Cc1cnc2ccc3c(nc(N)n3C)c2n1 gave a plating efficiency of 46% (BALB/c 3T3; colony formation; 1 µM).
Nc1ncnc2c1ncn2[C@@H]1O[C@@H]2COP(=O)(O)O[C@H]3[C@@H](O)[C@H](n4cnc5c(=O)[nH]cnc54)O[C@@H]3COP(=O)(O)O[C@H]2[C@H]1O gave a fold enrichment of 7.39 (HFF-1; RNA sequencing, refers to: Reactome DDX58/IFIH1 IFN-α/β induction; upregulated pathways; reference: mock).
CC(=O)O[C@H]1CC[C@@]2(C)[C@H](CC[C@@H]3[C@@H]2CC[C@]2(C)[C@@H](C4=CC(=O)OC4)[C@@H](OC(C)=O)C[C@]32O)C1 — result for “fitted bottom MyBP-C level”: 18.6% (iPSC-derived cardiomyocytes; concentration-response fit; concentration not given; reference: vehicle).
COc1ccc(CCN(C)CCCC(C#N)(c2ccc(OC)c(OC)c2)C(C)C)cc1OC (centres unmarked) gave an IC50 of 2.51 µM (Plasmodium falciparum; HB3).
CCC1=N[C@H]2C[C@@]3(C(=O)N(OC)c4ccccc43)[C@H]3C[C@@H]1[C@@H]2CO3: viability “no effect” (Vero; CCK-8; up to 100 µM, 24 h).
For CCN(CC)c1ccc(C=NNC(=O)CSc2nc3ccccc3c(=O)n2Cc2ccc(S(N)(=O)=O)cc2)c(O)c1, the CC50 was > 100 µM (IGROV-1; NCI five-dose screen).
With COc1c(CCC[P+](c2ccccc2)(c2ccccc2)c2ccccc2)cc2c(c1OC)OCO2.[I-] the LC50 was > -4 log M (SK-OV-3; SRB).
NC(=O)c1cccc2c1O/C(=C\c1ccc(C(=O)N[C@H]3CN4CCC3CC4)s1)C2=O: PARylation “inhibited” (SUM149; cellular PARylation, inhibitor, Western blot; added: H2O2).
Oc1ccc(C2(c3ccc(O)cc3)c3ccccc3-c3ccccc32)cc1 has an inhibition of 20.9% (HepG2 spheroids; cell proliferation, flow cytometry, refers to: Ki67; 10 µM, 96 h; reference: solvent control).
CC[C@H]1CN2CCc3cc(OC)c(OC)cc3[C@@H]2C[C@@H]1C[C@H]1NCCc2cc(OC)c(OC)cc21.Cl.Cl gave an efficacy of 51% (C127 LDR GFP reporter cells; silenced GFP reporter induction, activator, high-content imaging; retest, two-run mean).
Cc1c(O)c(O)cc2c1CC=C1[C@@]2(C)CC[C@@]2(C)[C@@H]3C[C@](C)(C(=O)O)CC[C@]3(C)CC[C@]12C — result for “fitted bottom MyBP-C/MYH ratio”: 0% (iPSC-derived cardiomyocytes; concentration-response fit; reference: vehicle).
CNCCCN1c2ccccc2CCc2ccccc21 has an IC50 of 1.58 µM (Plasmodium falciparum; W2).
The GI50 of CN1CCN(C2(CNC3CCN(c4cccc(-c5cc6cc(F)ccc6[nH]5)c4)CC3)CCC2)CC1 is reported as 0.19 µM (SR).
COC(=O)C1CCN(C(=O)c2ccc(N(C)Cc3cnc4nc(N)nc(N)c4n3)cc2)CC1 gave a mitochondrial toxicity of -6.44 ± 4.96% (786-O; high-content imaging, refers to: MitoTracker Red uptake; 10 µM).
For CCC(C)C(C(CC(=O)N1CCCC1C(OC)C(C)C(=O)NC(Cc1ccccc1)C(=O)O)OC)N(C)C(=O)C(NC(=O)C(C(C)C)N(C)C(=O)CCSSc1ccccn1)C(C)C (centres unmarked), the maximum killing was ~50% (HeLa; MTT; 10 µM, 2 h).
O=S(=O)(Nc1ccc(-c2nc3cc(NS(=O)(=O)c4ccc(Br)cc4)ccc3o2)cc1)c1ccc(Br)cc1 gave an EC50 of 16 µM (DLD-1 colorectal cancer; 48 h).
C/C=C(/C)C(=O)O[C@H]1C(C)=C2[C@H]([C@@H]1OC(=O)CCCCCCC)[C@@](C)(OC(C)=O)C[C@H](OC(=O)CCC)[C@@]1(O)[C@H]2OC(=O)[C@@]1(C)O: “normalized enrichment score” 2.01 (HEK-293T; RNA-seq GSEA, refers to: Hallmark hypoxia; 500 nM, 6 h; direction not given).
For C=C1C(=O)O[C@H]2C[C@@]3(C)O[C@@H]3CC/C(C)=C/[C@@H](OC(C)=O)[C@H]12, “fitted top MyBP-C level” read 100% (iPSC-derived cardiomyocytes; concentration-response fit; concentration not given; reference: vehicle).
For CC[C@H](C)[C@H](NC(=O)[C@H](CCC(=O)O)NC(=O)[C@H](CCCNC(=N)N)NC(=O)[C@H](CCCNC(=N)N)NC(=O)[C@H](CCCNC(=N)N)NC(=O)[C@H](CCC(N)=O)NC(=O)[C@H](CCCNC(=N)N)NC(=O)[C@H](CCCNC(=N)N)NC(=O)[C@H](CCCCN)NC(=O)[C@H](CCCCN)NC(=O)[C@H](CCCNC(=N)N)NC(=O)CNC(=O)[C@H](Cc1ccc(O)cc1)NC(C)=O)C(=O)N[C@@H](CC(=O)O)C(=O)N[C@@H](Cc1c[nH]cn1)C(=O)N[C@@H](CC(=O)O)C(N)=O, “RAGE protein level” read “no effect” (BV-2; immunoblot; 70 µM, added: high glucose).
The GI50 of Nc1ncc(-c2nc(N3CCOCC3)nc(N3CCOCC3)n2)c(C(F)F)n1 is reported as 0.176 µM (SR; 72 h).
O=S(=O)(c1ccc(O)cc1)c1ccc(O)cc1 — result for “S phase cells”: 10.7 ± 4.16% (HepG2 spheroids; Hoechst flow cytometry; 0.10 µM, 96 h).
For CO[C@H]1/C=C\C=C(/C)C(=O)NC2=CC(=O)C(NCCN(C)C)=C(C[C@@H](C)C[C@H](OC)[C@H](O)[C@@H](C)/C=C(\C)[C@@H]1OC(N)=O)C2=O, the EC50 was 1.1 µM (iPSC-derived cardiomyocytes; concentration-response curve, refers to: MyBP-C/MYH ratio; 24 h).
Under “G2 phase cells”, Cc1cc(C(C)(C)c2ccc(O)c(C)c2)ccc1O is recorded as 15.1 ± 4.8% (HepG2 spheroids; Hoechst flow cytometry; 0.01 µM, 96 h).
O=C(Nc1ccc2[nH]nc(-c3ccncc3)c2c1)[C@@H]1CCN(CC(=O)N2CCN(c3ccc(-c4ncccn4)cc3)CC2)C1 has a PI-positive cells of 2.58 count and 3.17 count and 4.25 count (HCT116; IncuCyte; concentration not given, 12 (unit not given)).
Under “cells in S phase”, N.N.[Cl][Pt][Cl] is recorded as 37% (NCI-H82; PI flow cytometry; 10 µM, 24 h).
With C[C@H]1CN(c2n[nH]c3nc(N[C@H]4CC[C@H](NS(=O)(=O)CCC(F)(F)F)CC4)ncc23)CCO1 the remaining binding was 0.98 (Non-selective voltage-gated ion channel VDAC2 (Homo sapiens, UniProt P45880); Kinobeads competition, refers to: VDAC2; 0.16 µM, unit not given; reference: vehicle).
O=C1NC(=O)N(CCc2ccc(F)cc2)C(=O)/C1=C/C=C/c1ccccc1 has a maximum efficacy of 106% (C127 LDR GFP reporter cells; silenced GFP reporter induction, activator, high-content imaging; independent samples, two-run mean).
CC(c1ccccc1)(c1ccc(O)cc1)c1ccc(O)cc1: “G1 phase cells” 69.7 ± 7.18% (HepG2 spheroids; Hoechst flow cytometry; 1 µM, 96 h).
C[C@]12CC[C@H](O)C[C@H]1CC[C@@H]1[C@@H]2CC[C@]2(C)[C@@H](c3ccc(=O)oc3)CC[C@]12O gave a mRNA level of 2.17 and 2.2 and 1.68 (MCF7; RT-qPCR, refers to: PGR; 20 nM, 48 h, unit not given, added: estradiol; reference: untreated).
For CC1=C(O)C(=O)C=C2C1=CC=C1[C@@]2(C)CC[C@@]2(C)[C@@H]3C[C@](C)(C(=O)O)CC[C@]3(C)CC[C@]12C, “fitted bottom MyBP-C/MYH ratio” read 0% (iPSC-derived cardiomyocytes; concentration-response fit; reference: vehicle).
With Cc1nn(-c2nc3c(F)cc(F)cc3s2)c(O)c1C(c1ccc(C(F)(F)F)cc1)c1c(C)nn(-c2nc3c(F)cc(F)cc3s2)c1O the viability was 109% and 101% and 105% and 112% (RAW-ISG; CCK-8; 6.25 µM).
O=C1N(Cc2ccccc2Cl)c2ccccc2C12NN=C(c1ccccc1)S2 (centres unmarked) has a fold change of 1.6 (MDA-MB-468; gene expression array, refers to: RPL7L1 mRNA; 10 µM, 12 h; reference: untreated, down).

Some of these lines once more:
CC(=O)O[C@H]1CC[C@@]2(C)[C@H](CC[C@@H]3[C@@H]2CC[C@]2(C)[C@@H](C4=CC(=O)OC4)[C@@H](OC(C)=O)C[C@]32O)C1 — result for “fitted bottom MyBP-C level”: 18.6% (iPSC-derived cardiomyocytes; concentration-response fit; concentration not given; reference: vehicle).
O=C1N(Cc2ccccc2Cl)c2ccccc2C12NN=C(c1ccccc1)S2 (centres unmarked) has a fold change of 1.6 (MDA-MB-468; gene expression array, refers to: RPL7L1 mRNA; 10 µM, 12 h; reference: untreated, down).
Under “G2 phase cells”, Cc1cc(C(C)(C)c2ccc(O)c(C)c2)ccc1O is recorded as 15.1 ± 4.8% (HepG2 spheroids; Hoechst flow cytometry; 0.01 µM, 96 h).
